Measurements collected from several papers.
Protocols differ between the studies behind these lines. Numbers after ± are the reported error.

Compound | cell line | assay | conditions | how to read | quantity | value
CSc1nc(Nc2ccc(/C(C)=N/NC(=O)c3ccc([N+](=O)[O-])cc3[N+](=O)[O-])cc2)c(C#N)c(-c2ccccc2)n1 | HCT-116 | flow cytometry | concentration not given | reference: untreated control | sub-G1 phase cells | 7.91 fold
CCCC(CCC)C(=O)[O][Pt]([NH2])([NH2])([Cl])([Cl])[O]C(=O)c1ccccc1OC(C)=O | six human cancer lines | cytotoxicity, MTT |  | reference: oxaliplatin | IC50 fold lower | ~3 fold
C[N+](C)(C)c1ccc(C2NC(c3ccc([N+](C)(C)C)cc3)C34c5c6c7c8c9c%10c(c%11c%12c3c3c5c5c%13c6c6c7c7c9c9c%14c%10c%10c%11c%11c%12c%12c3c3c5c5c%13c%13c6c6c7c9c7c9c%14c%10c%10c%11c%11c%12c3c3c5c5c%13c6c7c6c9c%10c%11c3c56)C824)cc1 (stereo not drawn) | BC-3 | cell growth or viability | 24 h |  | CC50 | 20.6 µM
COc1cc(CNC(=O)C[C@H](C)CCC=C(C)C)ccc1OCc1cn(-c2ccccc2F)nn1 | NCI-H522 | SRB | 10 µM, 48 h |  | growth percent | 57.1%
CC(=O)Oc1ccccc1C(=O)[O][Pt]([NH2])([NH2])([Cl])([Cl])[O]C(=O)C(Cl)Cl | HEK293 and BCPAP | cytotoxicity, MTT |  | reference: IC50 HEK293 over IC50 BCPAP | selectivity index | 1.5
COc1cc(CNC(=O)C[C@H](C)CCC=C(C)C)ccc1OCc1cn(-c2cccc([N+](=O)[O-])c2)nn1 | NCI-H522 | SRB | 10 µM, 48 h |  | growth percent | 80.1%
CO[C@H]1O[C@H](COC(c2ccccc2)(c2ccccc2)c2ccccc2)[C@@H](OS(=O)(=O)c2ccccc2)[C@H](OS(=O)(=O)c2ccccc2)[C@H]1OS(=O)(=O)c1ccccc1 | Ehrlich | cell growth or viability, MTT | 31.25 µg/mL, 24 h |  | inhibition | 2.22%
COc1cc(CNC(=O)C[C@H](C)CCC=C(C)C)ccc1OCc1cn(-c2ccccc2)nn1 | SK-MEL-28 melanoma cells | SRB | 10 µM, 48 h |  | growth percent | 99.7%
O=Cc1ccc(N2CCC(O)CC2)o1 | human sickle cell (SS) red blood cells | RBC morphology | 2 mM, 2 h, 37 °C, hypoxia 2.5% O2, haematocrit 20% | reference: untreated | inhibition of sickling | 22%
O=Cc1c(O)ccc2ccccc12 | HUVEC | RNA sequencing, refers to: CLDN1 | 75 µM, 24 h | reference: DMSO | log2 fold change | 3.25
CCC12CCc3c(c4ccccc4n3C)CCN(CC3OC31)C2 (stereo not drawn) | BV-2 |  | concentration not given, LPS 2 h, added: LPS | reference: LPS alone | NF-kB p65 nuclear translocation | ~59.9%
COc1cc(CNC(=O)C[C@H](C)CCC=C(C)C)ccc1OCc1cn(-c2ccc(Cl)c(Cl)c2)nn1 | SNB-75 CNS cancer cells | SRB | 10 µM, 48 h |  | growth percent | 47.2%
COc1ccc([C@@H]2CC(=O)c3c(O)cc(O[C@@H]4O[C@H](CO[C@@H]5O[C@@H](C)[C@H](O)[C@@H](O)[C@H]5O)[C@@H](O[C@H]5O[C@H](CO)[C@@H](O)[C@H](O)[C@H]5O)[C@H](O)[C@H]4O)cc3O2)cc1O | A549 | trypan blue exclusion | 150 µg/mL, 72 h |  | cell count | 10400 ± 702
COc1cc(CNC(=O)C[C@H](C)CCC=C(C)C)ccc1OCc1cn(-c2ccccc2[N+](=O)[O-])nn1 | SNB-75 CNS cancer cells | SRB | 10 µM, 48 h |  | growth percent | 56.6%
CC(=O)OC[C@H]1O[C@@H](Sc2sc(C(=O)c3ccc(Br)cc3)c(N)c2-c2nc3ccccc3s2)[C@H](OC(C)=O)[C@@H](OC(C)=O)[C@H]1OC(C)=O | Malme-3M | SRB | 10 µM, 48 h | reference: untreated | growth | 98%
O=C(N1CCCC1)n1cc(-c2ccc(-c3ccccc3)cc2)nn1 | mouse T-cells | N-terminal labeled proteins, N-terminal enrichment proteomics, refers to: OXSR1 | 1 nM, 6 h | reference: DMSO | SILAC ratio | 1.09 ± 0.11
COc1cc(CNC(=O)C[C@H](C)CCC=C(C)C)ccc1OCc1cn(-c2ccccc2Cl)nn1 | SNB-75 CNS cancer cells | SRB | 10 µM, 48 h |  | growth percent | 60%
COc1cc(OC)cc([C@@H]2C[C@H](C)OC(=O)c3c(Sc4ccccc4)c4ccccn4c32)c1 (relative stereo) | MCF-10A | resazurin |  | reference: CC50 MCF-10A over IC50 MDA-MB-231 | selectivity ratio | 48

Some of these lines once more:
Compound | cell line | assay | conditions | how to read | quantity | value
O=Cc1c(O)ccc2ccccc12 | HUVEC | RNA sequencing, refers to: CLDN1 | 75 µM, 24 h | reference: DMSO | log2 fold change | 3.25
